Assay results gathered from unrelated publications.
Parts stem from different laboratories: compare values within a part only. Positions count from the first letter of the parent shown.

Block 1
Target: CCNB3, cyclin fold, Cln2 fusion (human)
Technique: yeast growth competition, sequencing
Sample: yeast
Notes: weak parent motif
Relative to: not given
Direction: higher = stronger binding
Parent: PKN2 docking peptide (human); VSAVQKLDFSDTM; partner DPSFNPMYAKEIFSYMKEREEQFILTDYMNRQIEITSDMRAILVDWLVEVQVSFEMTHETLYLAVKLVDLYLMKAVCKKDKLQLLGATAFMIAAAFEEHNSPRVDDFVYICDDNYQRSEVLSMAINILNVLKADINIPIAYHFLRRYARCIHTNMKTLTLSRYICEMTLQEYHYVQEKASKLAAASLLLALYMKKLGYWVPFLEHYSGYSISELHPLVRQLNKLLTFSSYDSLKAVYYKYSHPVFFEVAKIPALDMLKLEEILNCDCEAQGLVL
Change | normalised enrichment score
VSAVQKTDFSDTM [L7T] | 0.19
VSAVQKLDFSWTM [D11W] | 0.476
VSAVQKQDFSDTM [L7Q] | -0.0768

Block 2
Target: Sal-like protein 4, full length isoform A (SALL4, Homo sapiens, UniProt Q9UJQ4, residues 1-1053)
Sequence of UniProt Q9UJQ4 (whole entry, looked up): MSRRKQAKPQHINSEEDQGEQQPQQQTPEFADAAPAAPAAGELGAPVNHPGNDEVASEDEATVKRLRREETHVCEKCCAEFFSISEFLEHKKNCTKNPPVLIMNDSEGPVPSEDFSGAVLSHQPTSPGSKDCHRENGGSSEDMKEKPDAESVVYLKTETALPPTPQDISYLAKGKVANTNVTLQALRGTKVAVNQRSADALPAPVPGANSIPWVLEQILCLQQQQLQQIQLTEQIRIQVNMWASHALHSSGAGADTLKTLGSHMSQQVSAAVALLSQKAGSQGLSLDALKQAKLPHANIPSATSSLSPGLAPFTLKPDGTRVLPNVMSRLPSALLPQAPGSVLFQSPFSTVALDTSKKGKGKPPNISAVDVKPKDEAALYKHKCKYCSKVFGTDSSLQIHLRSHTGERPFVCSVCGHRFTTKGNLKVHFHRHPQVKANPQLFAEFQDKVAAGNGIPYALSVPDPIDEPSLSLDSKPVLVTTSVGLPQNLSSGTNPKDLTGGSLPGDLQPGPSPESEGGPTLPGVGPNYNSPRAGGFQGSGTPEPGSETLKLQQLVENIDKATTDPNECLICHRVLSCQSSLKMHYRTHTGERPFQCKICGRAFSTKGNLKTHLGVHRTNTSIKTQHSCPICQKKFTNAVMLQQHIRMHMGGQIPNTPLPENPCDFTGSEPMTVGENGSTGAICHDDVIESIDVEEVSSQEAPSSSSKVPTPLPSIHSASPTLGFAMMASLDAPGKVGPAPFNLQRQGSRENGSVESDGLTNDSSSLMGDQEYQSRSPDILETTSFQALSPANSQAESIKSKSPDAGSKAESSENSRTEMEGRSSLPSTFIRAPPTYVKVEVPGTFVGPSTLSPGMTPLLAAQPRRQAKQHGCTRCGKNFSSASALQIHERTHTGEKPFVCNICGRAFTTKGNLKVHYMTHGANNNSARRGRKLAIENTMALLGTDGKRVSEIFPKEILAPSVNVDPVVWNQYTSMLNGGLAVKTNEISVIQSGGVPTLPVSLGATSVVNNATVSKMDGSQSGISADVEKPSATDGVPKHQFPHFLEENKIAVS
Technique: universal PBM
Form: double-stranded DNA, one strand shown
Sample: in vitro
Concentration: 600 nM
Notes: 8-mer, flanks averaged, mean of replicates
Direction: higher = stronger binding
Sequence | E-score
ATAGGCAT | 0.151
CCGGGCAC | -0.349
CCCCTAAG | -0.22
ATACAAGC | 0.0931

Block 3
Target: Prothrombin, mature alpha-thrombin (F2, Homo sapiens, UniProt P00734)
Technique: aptamer microarray, sandwich
Form: DNA with 2'F-ANA
Sample: in vitro
Concentration: 200 nM
Notes: whole 15-mer aptamer, many near background
With: Cy3 exosite-II aptamer, 400 nM
Direction: higher = stronger binding
Sequence: GGTTGGTGTGGTTGG
Modification | mean fluorescence intensity
2'F-ANA at 2 3 4 10 13 14 | 206 a.u.
2'F-ANA at 1 4 5 8 9 11 | 52.1 a.u.
2'F-ANA at 1 3 4 7 10 11 13 | 55.6 a.u.
2'F-ANA at 1 3 5 7 8 9 12 13 14 | 48.4 a.u.
2'F-ANA at 2 4 5 6 7 8 10 11 12 13 15 | 56.4 a.u.

Single results of other studies
Substance | target | test | test system | setting | how to read | measurement | value
PhoQ, residues 284 288 289 292 302 303 SVHLDV | PhoP, residues 12 14 15 18 19 DLLYY (Escherichia coli, UniProt P23836) | Sort-seq, refers to: YFP reporter | E. coli | PhoQ-PhoP variant library, with: 10 µM Mg2+ | relative to: high Mg2+ state, higher = stronger signaling | fold induction | 2.07

Repeated from above (block 2):
Sequence | E-score
ATAGGCAT | 0.151
